# Experimental data of several laboratories.
# Compare with care: the assays were run in different laboratories. ± gives the spread as reported.
# Replicase polyprotein 1ab main protease: Replicase polyprotein 1ab, main protease (Human coronavirus OC43, UniProt P0C6X6)
# gyrB with GyrA: DNA gyrase subunit B, with GyrA (gyrB, Mycobacterium tuberculosis, UniProt P9WG45)
# Sequence of UniProt P9WG45 (whole entry, looked up): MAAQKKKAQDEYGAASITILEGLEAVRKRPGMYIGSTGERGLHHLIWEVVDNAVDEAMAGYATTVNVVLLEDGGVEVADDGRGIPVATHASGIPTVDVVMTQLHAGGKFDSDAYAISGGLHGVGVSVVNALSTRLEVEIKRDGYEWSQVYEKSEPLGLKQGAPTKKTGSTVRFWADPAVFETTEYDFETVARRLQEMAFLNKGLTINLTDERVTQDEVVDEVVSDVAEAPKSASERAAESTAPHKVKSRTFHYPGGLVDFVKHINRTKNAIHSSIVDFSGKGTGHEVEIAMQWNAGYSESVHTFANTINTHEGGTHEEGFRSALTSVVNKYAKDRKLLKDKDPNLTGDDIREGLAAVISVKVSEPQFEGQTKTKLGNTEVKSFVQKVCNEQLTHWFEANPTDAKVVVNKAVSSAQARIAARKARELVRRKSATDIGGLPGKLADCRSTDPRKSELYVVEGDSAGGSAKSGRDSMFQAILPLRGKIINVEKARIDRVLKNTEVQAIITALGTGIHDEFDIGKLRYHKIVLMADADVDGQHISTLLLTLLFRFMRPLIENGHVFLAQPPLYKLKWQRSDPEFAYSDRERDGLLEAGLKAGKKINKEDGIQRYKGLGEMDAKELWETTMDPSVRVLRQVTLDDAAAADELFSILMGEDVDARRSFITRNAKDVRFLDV
# SIK1: Serine/threonine-protein kinase SIK1 (SIK1, Homo sapiens, UniProt P57059)
# Sequence of UniProt P57059 (whole entry, looked up): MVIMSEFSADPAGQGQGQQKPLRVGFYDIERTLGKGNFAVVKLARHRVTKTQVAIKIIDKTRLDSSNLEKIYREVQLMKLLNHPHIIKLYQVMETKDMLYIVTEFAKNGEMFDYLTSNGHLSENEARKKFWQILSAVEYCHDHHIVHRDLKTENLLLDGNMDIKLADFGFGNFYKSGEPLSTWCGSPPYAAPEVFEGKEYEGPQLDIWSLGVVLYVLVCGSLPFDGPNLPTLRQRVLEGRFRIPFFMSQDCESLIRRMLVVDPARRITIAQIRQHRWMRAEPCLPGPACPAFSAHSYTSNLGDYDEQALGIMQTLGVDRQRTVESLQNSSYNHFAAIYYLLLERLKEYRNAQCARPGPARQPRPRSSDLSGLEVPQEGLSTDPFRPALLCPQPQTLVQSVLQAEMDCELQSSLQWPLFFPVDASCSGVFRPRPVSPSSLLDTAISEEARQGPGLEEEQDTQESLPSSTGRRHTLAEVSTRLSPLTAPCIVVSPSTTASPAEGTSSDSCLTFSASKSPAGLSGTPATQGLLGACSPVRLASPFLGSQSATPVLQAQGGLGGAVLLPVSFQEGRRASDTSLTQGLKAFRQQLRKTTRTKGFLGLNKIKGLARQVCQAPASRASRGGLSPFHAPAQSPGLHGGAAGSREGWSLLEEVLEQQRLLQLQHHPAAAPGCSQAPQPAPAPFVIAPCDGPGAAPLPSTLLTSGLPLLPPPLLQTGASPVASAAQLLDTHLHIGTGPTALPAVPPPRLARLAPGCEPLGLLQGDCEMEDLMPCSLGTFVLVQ
# Genome polyprotein protease: Genome polyprotein, protease (Coxsackievirus B3, UniProt P03313)
# Sequence of UniProt P03313 (whole entry, looked up): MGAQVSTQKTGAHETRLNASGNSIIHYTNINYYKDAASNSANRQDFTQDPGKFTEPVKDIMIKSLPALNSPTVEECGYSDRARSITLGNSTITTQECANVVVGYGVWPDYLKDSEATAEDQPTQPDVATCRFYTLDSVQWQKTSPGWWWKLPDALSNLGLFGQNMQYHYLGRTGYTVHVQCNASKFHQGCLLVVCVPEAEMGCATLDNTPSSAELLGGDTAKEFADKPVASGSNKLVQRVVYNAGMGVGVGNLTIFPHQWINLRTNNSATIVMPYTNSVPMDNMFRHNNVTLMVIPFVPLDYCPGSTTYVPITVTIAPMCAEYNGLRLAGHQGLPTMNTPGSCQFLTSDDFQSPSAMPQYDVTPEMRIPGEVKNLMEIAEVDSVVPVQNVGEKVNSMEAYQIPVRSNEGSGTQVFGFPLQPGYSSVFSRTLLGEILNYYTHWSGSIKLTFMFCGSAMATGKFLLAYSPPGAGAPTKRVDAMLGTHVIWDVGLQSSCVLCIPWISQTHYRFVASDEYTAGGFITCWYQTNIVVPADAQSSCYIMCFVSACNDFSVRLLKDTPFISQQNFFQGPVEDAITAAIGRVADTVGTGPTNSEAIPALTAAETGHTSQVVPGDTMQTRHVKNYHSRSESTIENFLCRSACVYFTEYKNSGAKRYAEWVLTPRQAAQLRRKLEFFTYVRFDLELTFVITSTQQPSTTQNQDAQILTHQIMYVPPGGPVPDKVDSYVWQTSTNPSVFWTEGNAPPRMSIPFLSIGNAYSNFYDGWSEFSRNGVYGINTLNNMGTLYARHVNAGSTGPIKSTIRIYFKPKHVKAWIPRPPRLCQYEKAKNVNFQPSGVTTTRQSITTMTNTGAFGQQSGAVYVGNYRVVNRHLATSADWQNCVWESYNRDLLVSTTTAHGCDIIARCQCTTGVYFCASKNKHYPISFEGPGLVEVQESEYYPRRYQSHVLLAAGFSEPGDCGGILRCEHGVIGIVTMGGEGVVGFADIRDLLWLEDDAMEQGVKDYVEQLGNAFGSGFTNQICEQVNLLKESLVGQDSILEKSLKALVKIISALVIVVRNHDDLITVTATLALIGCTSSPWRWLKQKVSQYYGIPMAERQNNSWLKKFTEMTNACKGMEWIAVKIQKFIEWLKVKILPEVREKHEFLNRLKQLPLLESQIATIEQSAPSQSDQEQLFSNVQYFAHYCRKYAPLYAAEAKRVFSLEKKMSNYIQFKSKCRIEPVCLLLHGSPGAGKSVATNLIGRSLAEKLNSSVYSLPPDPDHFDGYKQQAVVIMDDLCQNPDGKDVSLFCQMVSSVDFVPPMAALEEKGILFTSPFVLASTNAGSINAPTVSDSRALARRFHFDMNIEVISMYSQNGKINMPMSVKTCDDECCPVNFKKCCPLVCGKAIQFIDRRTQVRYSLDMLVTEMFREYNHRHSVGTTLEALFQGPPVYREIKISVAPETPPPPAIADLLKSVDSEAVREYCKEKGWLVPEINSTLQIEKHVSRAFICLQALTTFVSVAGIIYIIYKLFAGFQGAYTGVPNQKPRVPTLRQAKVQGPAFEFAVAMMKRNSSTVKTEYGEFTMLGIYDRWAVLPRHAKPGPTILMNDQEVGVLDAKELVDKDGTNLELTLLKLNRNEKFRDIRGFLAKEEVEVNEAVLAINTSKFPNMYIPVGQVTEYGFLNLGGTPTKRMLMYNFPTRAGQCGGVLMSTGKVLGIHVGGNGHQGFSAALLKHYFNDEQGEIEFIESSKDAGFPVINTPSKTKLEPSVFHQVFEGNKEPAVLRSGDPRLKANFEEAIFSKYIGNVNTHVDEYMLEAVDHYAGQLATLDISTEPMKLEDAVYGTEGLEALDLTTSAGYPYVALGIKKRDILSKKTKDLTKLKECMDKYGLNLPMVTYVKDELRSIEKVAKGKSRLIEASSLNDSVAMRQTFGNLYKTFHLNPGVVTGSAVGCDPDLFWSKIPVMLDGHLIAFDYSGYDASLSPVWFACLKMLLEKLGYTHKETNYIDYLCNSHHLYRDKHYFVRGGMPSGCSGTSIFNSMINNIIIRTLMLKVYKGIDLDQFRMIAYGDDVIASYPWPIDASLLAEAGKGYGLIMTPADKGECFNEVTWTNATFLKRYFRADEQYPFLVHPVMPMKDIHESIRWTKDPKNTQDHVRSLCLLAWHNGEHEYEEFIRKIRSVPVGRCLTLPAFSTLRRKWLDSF
# Dihydrolipoyl dehydrogenase: Dihydrolipoyl dehydrogenase (Mycobacterium tuberculosis, UniProt P9WHH9)
# Sequence of UniProt P9WHH9 (whole entry, looked up): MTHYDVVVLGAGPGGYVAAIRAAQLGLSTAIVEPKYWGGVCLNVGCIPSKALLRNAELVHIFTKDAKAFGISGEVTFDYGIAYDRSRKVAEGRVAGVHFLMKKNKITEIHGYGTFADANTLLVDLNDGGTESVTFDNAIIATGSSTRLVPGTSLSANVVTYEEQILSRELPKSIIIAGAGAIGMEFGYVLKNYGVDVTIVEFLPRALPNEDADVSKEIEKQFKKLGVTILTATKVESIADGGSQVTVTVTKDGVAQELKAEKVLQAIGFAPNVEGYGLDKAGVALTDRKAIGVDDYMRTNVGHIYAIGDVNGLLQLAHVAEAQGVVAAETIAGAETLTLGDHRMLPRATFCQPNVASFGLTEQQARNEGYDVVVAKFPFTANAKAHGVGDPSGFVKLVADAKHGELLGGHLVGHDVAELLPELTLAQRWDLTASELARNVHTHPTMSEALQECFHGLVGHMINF
# DNA ligase A: DNA ligase A (Mycobacterium tuberculosis, UniProt P9WNV1)
# DNA ligase: DNA ligase (Enterobacteria phage T4, UniProt P00970)
# Sequence of UniProt P00970 (whole entry, looked up): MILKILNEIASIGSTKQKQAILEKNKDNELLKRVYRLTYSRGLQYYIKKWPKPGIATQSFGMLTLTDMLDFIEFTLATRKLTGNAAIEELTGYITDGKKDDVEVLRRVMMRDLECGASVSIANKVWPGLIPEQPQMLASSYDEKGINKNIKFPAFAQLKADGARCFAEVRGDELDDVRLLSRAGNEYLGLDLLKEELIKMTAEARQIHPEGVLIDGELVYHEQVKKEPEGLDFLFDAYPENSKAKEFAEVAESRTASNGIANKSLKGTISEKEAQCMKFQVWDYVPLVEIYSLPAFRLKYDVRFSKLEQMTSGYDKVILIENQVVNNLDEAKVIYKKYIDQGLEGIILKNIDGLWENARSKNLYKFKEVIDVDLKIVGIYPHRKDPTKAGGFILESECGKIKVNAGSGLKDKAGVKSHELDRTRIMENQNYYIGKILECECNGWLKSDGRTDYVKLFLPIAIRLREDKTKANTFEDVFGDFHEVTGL
# Adenosylmethionine-8-amino-7-oxononanoate aminotransferase: Adenosylmethionine-8-amino-7-oxononanoate aminotransferase (Mycobacterium tuberculosis, UniProt P9WQ81)
# Sequence of UniProt P9WQ81 (whole entry, looked up): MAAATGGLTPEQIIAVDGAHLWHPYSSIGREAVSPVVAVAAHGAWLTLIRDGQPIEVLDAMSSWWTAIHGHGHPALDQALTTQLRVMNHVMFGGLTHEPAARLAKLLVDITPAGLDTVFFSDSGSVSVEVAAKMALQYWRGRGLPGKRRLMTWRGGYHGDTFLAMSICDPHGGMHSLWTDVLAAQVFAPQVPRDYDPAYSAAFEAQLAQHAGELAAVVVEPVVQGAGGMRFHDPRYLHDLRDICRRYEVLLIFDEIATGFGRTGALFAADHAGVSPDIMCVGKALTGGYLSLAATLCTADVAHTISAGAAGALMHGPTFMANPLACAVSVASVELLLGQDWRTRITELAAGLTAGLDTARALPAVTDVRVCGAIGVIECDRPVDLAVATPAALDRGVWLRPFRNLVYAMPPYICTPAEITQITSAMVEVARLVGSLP
Structure (SMILES),target,test,system,conditions,IC50 [µM]
CSCC[C@@H](C=O)NC(=O)[C@H](CC(C)C)NC(=O)[C@H](CC(C)C)NC(C)=O,Replicase polyprotein 1ab main protease,"enzyme activity, inhibitor",,,0.56
C=CC(=O)NC(CC(=C)C)C(=O)N1CC(C(=O)NC(Cc2ccccc2)C(=O)NC)C(c2cccc(C(F)(F)F)c2)C1 (centres unmarked),Replicase polyprotein 1ab main protease,,,,37.4
CC1C(=NNC(=O)c2ccncc2)C(C)C(c2ccc(Cl)cc2)OC1c1ccc(Cl)cc1 (centres unmarked),gyrB with GyrA,"ATPase activity, inhibitor",,,5.16
COc1cc(N2CCN(C)CC2)ccc1Nc1ncc2c(n1)N(C1CCC1)C(=O)N(c1c(C)cccc1C)C2,SIK1,"enzyme activity, inhibitor",,,0.007
CCOCC1C(c2ccc(Cl)c(Cl)c2)CC2CCC1N2C (centres unmarked),"Sodium-dependent dopamine transporter (SLC6A3, Homo sapiens, UniProt Q01959)",inhibitor,,,0.00912
CC[C@H](C)[C@H](NC(=O)[C@H](CO)NC(=O)[C@H](Cc1ccc(O)cc1)NC(=O)[C@H](CC(=O)O)NC(=O)[C@H](CO)NC(=O)[C@@H](NC(=O)[C@H](Cc1ccccc1)NC(=O)[C@@H](NC(=O)CNC(=O)[C@@H]1CCCN1C(=O)[C@H](C)NC(=O)[C@@H](N)Cc1ccc(O)cc1)[C@@H](C)O)[C@@H](C)CC)C(=O)N[C@@H](C)C(=O)N[C@@H](CCSC)C(=O)N[C@@H](CC(=O)O)C(=O)N[C@@H](CCCCN)C(=O)N[C@H](C(=O)N[C@@H](Cc1c[nH]cn1)C(=O)N[C@@H](CCC(N)=O)C(=O)N[C@@H](CCC(N)=O)C(=O)N[C@@H](CC(=O)O)C(=O)N[C@@H](Cc1ccccc1)C(=O)N[C@H](C(=O)N[C@@H](CC(N)=O)C(=O)N[C@@H](Cc1c[nH]c2ccccc12)C(=O)N[C@@H](CC(C)C)C(=O)N[C@@H](CC(C)C)C(=O)N[C@@H](C)C(=O)N[C@@H](CCC(N)=O)C(=O)N[C@@H](CCCCN)C(=O)NCC(=O)N[C@@H](CCCCN)C(=O)N[C@@H](CCCCN)C(=O)N[C@@H](CC(N)=O)C(=O)N[C@@H](CC(=O)O)C(=O)N[C@@H](Cc1c[nH]c2ccccc12)C(=O)N[C@@H](CCCCN)C(=O)N[C@@H](Cc1c[nH]cn1)C(=O)N[C@@H](CC(N)=O)C(=O)N[C@H](C(=O)N[C@H](C(=O)N[C@@H](CCC(N)=O)C(=O)O)[C@@H](C)O)[C@@H](C)CC)C(C)C)[C@@H](C)CC,"Gastric inhibitory polypeptide receptor (Mus musculus, UniProt Q0P543)",,,"4 h, 4 °C",0.0398
Clc1ccc(C2C(n3ccnc3)C(c3ccc(Br)cc3)=NN2c2ccc(Cl)c(Cl)c2)cc1 (centres unmarked),Genome polyprotein protease,"enzyme activity, inhibitor",,,1.2
CC(C)c1nc2cc(O)ccc2c(=O)n1-c1ccc(C#N)cc1,"Transient receptor potential cation channel subfamily V member 1 (TRPV1, Homo sapiens, UniProt Q8NER1)","ion current, inhibitor, whole-cell patch clamp",HEK293T,"30 s preincubation, +80 mV, together with: pH 5",0.69
Cc1cc(S(=O)(=O)N(C)CC(=O)Nc2ccc(N3CCOCC3)c(Cl)c2)c2[nH]ncc2c1,Dihydrolipoyl dehydrogenase,"enzyme activity, inhibitor",,together with: 50 nM enzyme,0.029
Cc1cccc(C)c1N1Cc2cnc(Nc3ccc(N4CCN(C)CC4)cc3)nc2N(C23CC4CC(CC(C4)C2)C3)C1=O,SIK1,inhibitor,,,0.0097
Cc1cnc(N)c(S(=O)(=O)N(C)CC(=O)Nc2ccc(N3CCN(C)CC3)c(Cl)c2)c1,Dihydrolipoyl dehydrogenase,"enzyme activity, inhibitor",,together with: 50 nM enzyme,0.128
CC1(C)OC2OC(C(CCO)NCCCCCCCCCCNC(CCO)C3OC4OC(C)(C)OC4C3OCc3ccccc3)C(OCc3ccccc3)C2O1 (centres unmarked),DNA ligase A,"enzyme activity, inhibitor",,"1 h, 25 °C, 10% DMSO, together with: 50 µM NAD+",260 ± 4
C=CC(=O)N1CCN(c2cc(-c3ccc(C4CCC4)cc3)ncc2C(=O)N[C@H](Cc2ccccc2)C(=O)NC)C(C)C1 (some centres unmarked),Replicase polyprotein 1ab main protease,,,,> 100
CCCn1c(NCc2ccc(N3N=C(c4ccccc4)CC3c3ccccc3)cc2)nc2ccccc21 (centres unmarked),Genome polyprotein protease,"enzyme activity, inhibitor",,,6.1
O=C1CC(=O)N(c2ccccc2)c2cc(Cl)ccc2N1,"Gabrg2/Gabra2, with β3 subunit (Rattus norvegicus, UniProt P18508+P23576)","binding, radioligand displacement",HEK293 cell membranes,together with: 1 nM [3H]flunitrazepam,0.59 ± 0.12
C=CCC(NC(=O)C1CN(C(=O)C(CC(=C)C)NC(=O)C=C)CC1c1cccc(C(F)(F)F)c1)C(=O)NC (centres unmarked),Replicase polyprotein 1ab main protease,,,,> 100
C#CCCNC(=O)[C@@H](NC(=O)N[C@H](C(=O)N[C@H]1/C=C/CCNC(=O)/C=C/[C@H](C(C)C)NC1=O)C(C)C)C(C)C,"Proteasome subunit beta type-9 (Mus musculus, UniProt P28076)",inhibitor,,,0.022
CC1(C)O[C@H]2OC(CNCCCCCCCCCCCCNCC3O[C@@H]4OC(C)(C)O[C@@H]4[C@H]3OCc3ccccc3)[C@H](OCc3ccccc3)[C@H]2O1 (some centres unmarked),DNA ligase,"enzyme activity, inhibitor, radiometric",,,8
Nc1ccc(/C=C/C(=O)N2CCc3c(oc4c(-c5ccc(F)cc5)cc(-c5ccc(C(=O)N6CCC(F)(F)CC6)cn5)cc34)C2)cn1,"Serine/threonine-protein kinase PAK 4, phosphorylated (PAK4, Homo sapiens, UniProt O96013)","phosphorylation, Western blot, item: phospho-PAK4",MIA PaCa-2,72 h,0.84
CCOC(=O)CC(NC(=O)Nc1ccc(NC(=O)NC(CC(=O)OCC)C2OC3OC(C)(C)OC3C2OCc2ccccc2)cc1)C1OC2OC(C)(C)OC2C1OCc1ccccc1 (centres unmarked),DNA ligase A,"enzyme activity, inhibitor",,"1 h, 25 °C, 10% DMSO, together with: 50 µM NAD+",225 ± 6.2
C=CC(=O)NC(CC(=C)C)C(=O)N1CC(C(=O)NC(Cc2ccco2)C(=O)NC)C(c2cccc(C(F)(F)F)c2)C1 (centres unmarked),"Replicase polyprotein 1ab, main protease (rep, Human coronavirus HKU1, UniProt P0C6X2)",,,,> 100
Cc1cnc(N)c(S(=O)(=O)N(C)CC(=O)Nc2ccc(C#N)c(Cl)c2)c1,Dihydrolipoyl dehydrogenase,"enzyme activity, inhibitor",,together with: 50 nM enzyme,1.7
COc1cc(CN2CCN(C)CC2)ccc1Nc1ncc2c(n1)N(C13CC4CC(CC(C4)C1)C3)C(=O)N(c1c(C)cccc1C)C2,SIK1,"enzyme activity, inhibitor",,,> 0.5
COc1ccc(NC(=O)CN(C)S(=O)(=O)c2cc(C)cnc2N)cn1,Dihydrolipoyl dehydrogenase,"enzyme activity, inhibitor",,together with: 50 nM enzyme,0.331
O=C(Cc1nc2cc(Cl)c(Cl)cc2nc1CC(=O)c1cccnc1)c1cccnc1,Adenosylmethionine-8-amino-7-oxononanoate aminotransferase,"inhibitor, biochemical",,,175
CC1(C)OC2OC(C(CCO)NCCCNC(CCO)C3OC4OC(C)(C)OC4C3OCc3ccccc3)C(OCc3ccccc3)C2O1 (centres unmarked),DNA ligase,"enzyme activity, inhibitor, radiometric",,,455
CC1C(=NNC(=O)c2ccncc2)C(C)C(c2ccc(Br)cc2)OC1c1ccc(Br)cc1 (centres unmarked),gyrB with GyrA,"ATPase activity, inhibitor",,,5.76
COc1cc(C[S+]([O-])c2nc3cccnc3s2)oc(=O)c1 (centres unmarked),Genome polyprotein protease,"enzyme activity, inhibitor",,,> 50
O=c1cc(-c2ccccc2F)[nH]c2cc3c(cc12)OCO3,Adenosylmethionine-8-amino-7-oxononanoate aminotransferase,"inhibitor, biochemical",,,2.4 ± 0.417

# A few entries again:
Structure (SMILES),target,test,system,conditions,IC50 [µM]
CCCn1c(NCc2ccc(N3N=C(c4ccccc4)CC3c3ccccc3)cc2)nc2ccccc21 (centres unmarked),Genome polyprotein protease,"enzyme activity, inhibitor",,,6.1
CC1C(=NNC(=O)c2ccncc2)C(C)C(c2ccc(Br)cc2)OC1c1ccc(Br)cc1 (centres unmarked),gyrB with GyrA,"ATPase activity, inhibitor",,,5.76
